Assay results of several laboratories.
± marks the error that the study gave.

SMILES	assay	system	setting	scale	endpoint	value
CC[C@H](C)[C@H](NC(=O)[C@@H](NC(=O)c1ccnc(Cl)c1Cl)C(C)(C)C)C(=O)N[C@H](C(=O)N[C@H](C(=O)N[C@H](C(=O)N[C@@H](CCC(N)=O)C(=O)N[C@@H](Cc1c[nH]cn1)C(=O)N[C@H](CC(C)C)C(=O)N[C@@H](CO)C(=O)NCCOCCOCC(=O)N[C@@H](CCCCNC(=O)CC[C@@H]1NC(=O)[C@@H](CCCNC(=N)N)NC(=O)[C@H](CCCNC(=N)N)NC(=O)[C@@H](CCCNC(=N)N)NC(=O)[C@H](CCCNC(=N)N)NC(=O)[C@H](Cc2ccc3ccccc3c2)NC(=O)[C@@H](Cc2ccccc2)NC1=O)C(N)=O)[C@@H](C)O)[C@@H](C)CC)C(C)(C)O	–	mouse, acute lung injury, LPS-induced	intranasal, 3 mg/kg, 6 h, added: LPS 4 mg/kg intranasal	relative to: vehicle	BALF TNF-alpha and IL-6 levels	decreased
CC(=O)[O-].O.[Cu+2].[O-]c1ccc(Br)cc1C=NCCN1CCOCC1	hydroxyl radical scavenging	–	200 µM	–	inhibition	47.2%
COc1cc(O)ccc1CCC(c1ccc(O)cc1)c1cc2c(c(C)c1O)OC(c1ccc(O)cc1)CC2 (mixture of isomers)	–	human blood	0.3 µM, added: A23187	–	PGD2 level	5 ± 2 pg/mL
CN1CCC[C@]1(C)/C=C/S(=O)(=O)NC(=O)Nc1c2c(cc3c1CCC3)CCC2	–	human, whole blood ex vivo	12.5 mg twice daily, day 1, 12 h, multiple ascending dose, added: LPS and ATP	–	IL-18 inhibition	81.8%
CC(C)c1ccc(N(C)c2ccc3c(c2)OCC[C@H]3CNc2cnccc2C(=O)O)cc1	–	mouse, sample A gastric PDX	15 mg/kg, day 38	–	tumour growth inhibition	69%
COC1CN([C@H]2CC[C@H]([C@@]3(C)Oc4c(Cl)cc(C(=O)NCc5c(SC)cc(C)[nH]c5=O)c(C)c4O3)CC2)C1	RNA-seq, item: RAB20	human, whole blood	dose not given, 24 h	relative to: pretreatment baseline	log2 fold change	1.15
COc1cc2c(NC3CCN(C(C)C)CC3)cc(N3CCOCC3)nc2cc1OCCCN1CCCC1	TMT proteomics, item: PPIA	5xFAD mice, hippocampus	dose not given	relative to: untreated 5xFAD mice	log2 fold change	-0.0272
COc1ccc2cc3[n+](cc2c1OCCCOC(=O)c1cscn1)CCc1cc2c(cc1-3)OCO2	–	hyperlipidemic hamster	oral gavage, 24 mg/kg daily, 3 weeks	–	plasma LDL-C reduction	54.6%
CCC(=O)N[C@@H](C)C(=O)OCC(=O)N[C@@H](C)C(=O)O	–	water	pH 6, 50 °C	–	chain scission rate constant	0.0083 h⁻¹
COc1ccc(C(=O)CCc2cc(C(CCc3ccc(O)cc3OC)c3ccc(O)cc3)c(O)cc2OC)cc1 (racemic)	–	human blood	30 µM, added: A23187	–	5-HEPE level	113 ± 40 pg/mL

Excerpt of the above:
SMILES	assay	system	setting	scale	endpoint	value
CC(C)c1ccc(N(C)c2ccc3c(c2)OCC[C@H]3CNc2cnccc2C(=O)O)cc1	–	mouse, sample A gastric PDX	15 mg/kg, day 38	–	tumour growth inhibition	69%
